Results from different studies.
Numbered parts are unrelated; each lists some results of a single study. Several values in a cell are separate wells, animals, samples, runs or records.
UniProt Q02156, sequence (whole entry, looked up): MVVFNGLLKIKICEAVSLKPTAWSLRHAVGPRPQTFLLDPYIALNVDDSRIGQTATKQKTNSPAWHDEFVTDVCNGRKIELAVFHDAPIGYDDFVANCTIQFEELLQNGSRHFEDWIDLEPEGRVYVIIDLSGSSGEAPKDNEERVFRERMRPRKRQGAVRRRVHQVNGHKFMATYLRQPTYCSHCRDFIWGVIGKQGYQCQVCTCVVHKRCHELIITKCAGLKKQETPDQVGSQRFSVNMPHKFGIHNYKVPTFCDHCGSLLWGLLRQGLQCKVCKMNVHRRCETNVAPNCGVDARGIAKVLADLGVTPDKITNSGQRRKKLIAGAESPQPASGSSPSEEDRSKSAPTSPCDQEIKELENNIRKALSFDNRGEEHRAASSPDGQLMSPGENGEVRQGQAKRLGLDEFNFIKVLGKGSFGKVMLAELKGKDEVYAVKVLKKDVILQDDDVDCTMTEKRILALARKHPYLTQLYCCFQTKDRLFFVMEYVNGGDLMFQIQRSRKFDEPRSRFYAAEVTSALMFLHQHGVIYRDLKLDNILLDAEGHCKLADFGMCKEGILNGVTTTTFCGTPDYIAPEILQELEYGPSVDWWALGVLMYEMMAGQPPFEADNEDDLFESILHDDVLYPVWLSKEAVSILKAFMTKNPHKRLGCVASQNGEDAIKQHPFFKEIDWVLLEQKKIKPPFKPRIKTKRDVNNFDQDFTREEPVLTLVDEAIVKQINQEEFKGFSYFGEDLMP
UniProt P51813, sequence (whole entry, looked up): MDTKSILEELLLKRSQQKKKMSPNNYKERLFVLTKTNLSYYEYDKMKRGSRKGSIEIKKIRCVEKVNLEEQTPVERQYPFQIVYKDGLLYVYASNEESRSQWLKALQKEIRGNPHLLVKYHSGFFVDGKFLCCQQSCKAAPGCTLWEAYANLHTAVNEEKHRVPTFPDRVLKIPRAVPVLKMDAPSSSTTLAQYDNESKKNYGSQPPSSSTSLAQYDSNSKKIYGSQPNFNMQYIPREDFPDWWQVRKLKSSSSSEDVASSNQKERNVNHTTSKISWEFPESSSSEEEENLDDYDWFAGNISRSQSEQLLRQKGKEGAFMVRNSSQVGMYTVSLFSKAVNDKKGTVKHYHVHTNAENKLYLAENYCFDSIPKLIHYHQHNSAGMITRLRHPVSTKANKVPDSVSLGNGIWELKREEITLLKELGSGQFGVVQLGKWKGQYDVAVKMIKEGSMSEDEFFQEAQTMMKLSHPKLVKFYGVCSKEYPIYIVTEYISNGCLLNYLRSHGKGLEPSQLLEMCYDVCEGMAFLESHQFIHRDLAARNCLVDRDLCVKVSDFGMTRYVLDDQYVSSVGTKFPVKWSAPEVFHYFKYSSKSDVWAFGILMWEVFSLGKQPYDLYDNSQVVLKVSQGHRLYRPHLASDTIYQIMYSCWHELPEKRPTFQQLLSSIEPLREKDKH

Sample 1 — SMILES: C=CCc1ccc(O)c(-c2ccc(O)c(CC=C)c2)c1; read-out: chloride current
ANO1 del476-501/F628A: Anoctamin-1 (ANO1, Homo sapiens, UniProt Q5XXA6, del476-501/F628A)
UniProt Q5XXA6, sequence (whole entry, unmodified, looked up): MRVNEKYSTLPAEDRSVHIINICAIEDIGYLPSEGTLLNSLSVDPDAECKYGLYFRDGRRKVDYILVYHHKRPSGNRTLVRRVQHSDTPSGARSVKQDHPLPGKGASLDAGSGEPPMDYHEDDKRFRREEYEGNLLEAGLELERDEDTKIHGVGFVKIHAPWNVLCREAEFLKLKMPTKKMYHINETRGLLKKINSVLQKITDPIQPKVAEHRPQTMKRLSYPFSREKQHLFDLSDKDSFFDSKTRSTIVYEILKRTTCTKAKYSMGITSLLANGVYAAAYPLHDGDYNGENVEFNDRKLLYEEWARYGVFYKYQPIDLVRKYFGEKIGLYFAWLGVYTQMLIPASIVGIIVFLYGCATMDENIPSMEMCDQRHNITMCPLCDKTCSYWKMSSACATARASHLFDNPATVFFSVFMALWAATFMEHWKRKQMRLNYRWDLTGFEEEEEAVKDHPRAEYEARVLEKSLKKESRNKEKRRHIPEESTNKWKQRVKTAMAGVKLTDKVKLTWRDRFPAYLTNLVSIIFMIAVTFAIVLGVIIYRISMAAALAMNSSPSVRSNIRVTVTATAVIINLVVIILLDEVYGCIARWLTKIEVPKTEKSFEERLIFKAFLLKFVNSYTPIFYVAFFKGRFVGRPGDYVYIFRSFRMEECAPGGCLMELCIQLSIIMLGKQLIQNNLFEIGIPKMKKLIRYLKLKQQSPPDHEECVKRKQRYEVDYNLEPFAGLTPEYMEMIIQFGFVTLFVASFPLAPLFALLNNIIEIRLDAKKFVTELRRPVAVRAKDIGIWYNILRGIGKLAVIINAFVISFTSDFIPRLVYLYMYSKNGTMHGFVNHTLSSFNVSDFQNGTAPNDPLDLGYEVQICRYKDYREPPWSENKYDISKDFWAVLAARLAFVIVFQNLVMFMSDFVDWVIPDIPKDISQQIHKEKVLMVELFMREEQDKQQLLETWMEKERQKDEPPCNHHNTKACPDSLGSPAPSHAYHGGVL
ANO1 del476-501: Anoctamin-1 (ANO1, Homo sapiens, UniProt Q5XXA6, del476-501)
target	test	setting	normalized current
ANO1 del476-501/F628A	whole-cell voltage clamp	30 µM, concentration-response at -80 mV, added: 4 µM Ca2+	-0.362
ANO1 del476-501	whole-cell voltage clamp	1 µM, wild type, concentration-response at -60 mV, added: 4 µM Ca2+	-0.495
ANO1 del476-501	whole-cell voltage clamp	30 µM, wild type, I-V at -100 mV, added: 4 µM Ca2+	-0.0554
ANO1 del476-501	whole-cell voltage clamp	3 µM, wild type, I-V at 100 mV, added: 4 µM Ca2+	0.786
Anoctamin-1 (ANO1, Homo sapiens, UniProt Q5XXA6, del476-501/E649A/R541A)	inside-out patch clamp	10 µM, membrane voltage 120 mV	1
ANO1 del476-501	whole-cell voltage clamp	3 µM, wild type, concentration-response at -60 mV, added: 4 µM Ca2+	-0.433
ANO1 del476-501/F628A	whole-cell voltage clamp	10 µM, I-V at -80 mV, added: 4 µM Ca2+	-0.516
ANO1 del476-501/F628A	whole-cell voltage clamp	3 µM, I-V at 0 mV, added: 4 µM Ca2+	-0.0053
ANO1 del476-501	whole-cell voltage clamp	3 µM, wild type, concentration-response at 40 mV, added: 4 µM Ca2+	0.298
ANO1 del476-501	whole-cell voltage clamp	10 µM, wild type, I-V at -60 mV, added: 4 µM Ca2+	-0.176
ANO1 del476-501	whole-cell voltage clamp	10 µM, wild type, I-V at -80 mV, added: 4 µM Ca2+	-0.22
ANO1 del476-501	whole-cell voltage clamp	10 µM, wild type, concentration-response at -80 mV, added: 4 µM Ca2+	-0.209
ANO1 del476-501	whole-cell voltage clamp	1 µM, wild type, I-V at -60 mV, added: 4 µM Ca2+	-0.523

Sample 2 — action: inhibitor; tested at: concentration not given; added: with ssDNA
Target: DNA polymerase theta, helicase domain (POLQ, Homo sapiens, UniProt O75417)
UniProt O75417, sequence (whole entry, looked up): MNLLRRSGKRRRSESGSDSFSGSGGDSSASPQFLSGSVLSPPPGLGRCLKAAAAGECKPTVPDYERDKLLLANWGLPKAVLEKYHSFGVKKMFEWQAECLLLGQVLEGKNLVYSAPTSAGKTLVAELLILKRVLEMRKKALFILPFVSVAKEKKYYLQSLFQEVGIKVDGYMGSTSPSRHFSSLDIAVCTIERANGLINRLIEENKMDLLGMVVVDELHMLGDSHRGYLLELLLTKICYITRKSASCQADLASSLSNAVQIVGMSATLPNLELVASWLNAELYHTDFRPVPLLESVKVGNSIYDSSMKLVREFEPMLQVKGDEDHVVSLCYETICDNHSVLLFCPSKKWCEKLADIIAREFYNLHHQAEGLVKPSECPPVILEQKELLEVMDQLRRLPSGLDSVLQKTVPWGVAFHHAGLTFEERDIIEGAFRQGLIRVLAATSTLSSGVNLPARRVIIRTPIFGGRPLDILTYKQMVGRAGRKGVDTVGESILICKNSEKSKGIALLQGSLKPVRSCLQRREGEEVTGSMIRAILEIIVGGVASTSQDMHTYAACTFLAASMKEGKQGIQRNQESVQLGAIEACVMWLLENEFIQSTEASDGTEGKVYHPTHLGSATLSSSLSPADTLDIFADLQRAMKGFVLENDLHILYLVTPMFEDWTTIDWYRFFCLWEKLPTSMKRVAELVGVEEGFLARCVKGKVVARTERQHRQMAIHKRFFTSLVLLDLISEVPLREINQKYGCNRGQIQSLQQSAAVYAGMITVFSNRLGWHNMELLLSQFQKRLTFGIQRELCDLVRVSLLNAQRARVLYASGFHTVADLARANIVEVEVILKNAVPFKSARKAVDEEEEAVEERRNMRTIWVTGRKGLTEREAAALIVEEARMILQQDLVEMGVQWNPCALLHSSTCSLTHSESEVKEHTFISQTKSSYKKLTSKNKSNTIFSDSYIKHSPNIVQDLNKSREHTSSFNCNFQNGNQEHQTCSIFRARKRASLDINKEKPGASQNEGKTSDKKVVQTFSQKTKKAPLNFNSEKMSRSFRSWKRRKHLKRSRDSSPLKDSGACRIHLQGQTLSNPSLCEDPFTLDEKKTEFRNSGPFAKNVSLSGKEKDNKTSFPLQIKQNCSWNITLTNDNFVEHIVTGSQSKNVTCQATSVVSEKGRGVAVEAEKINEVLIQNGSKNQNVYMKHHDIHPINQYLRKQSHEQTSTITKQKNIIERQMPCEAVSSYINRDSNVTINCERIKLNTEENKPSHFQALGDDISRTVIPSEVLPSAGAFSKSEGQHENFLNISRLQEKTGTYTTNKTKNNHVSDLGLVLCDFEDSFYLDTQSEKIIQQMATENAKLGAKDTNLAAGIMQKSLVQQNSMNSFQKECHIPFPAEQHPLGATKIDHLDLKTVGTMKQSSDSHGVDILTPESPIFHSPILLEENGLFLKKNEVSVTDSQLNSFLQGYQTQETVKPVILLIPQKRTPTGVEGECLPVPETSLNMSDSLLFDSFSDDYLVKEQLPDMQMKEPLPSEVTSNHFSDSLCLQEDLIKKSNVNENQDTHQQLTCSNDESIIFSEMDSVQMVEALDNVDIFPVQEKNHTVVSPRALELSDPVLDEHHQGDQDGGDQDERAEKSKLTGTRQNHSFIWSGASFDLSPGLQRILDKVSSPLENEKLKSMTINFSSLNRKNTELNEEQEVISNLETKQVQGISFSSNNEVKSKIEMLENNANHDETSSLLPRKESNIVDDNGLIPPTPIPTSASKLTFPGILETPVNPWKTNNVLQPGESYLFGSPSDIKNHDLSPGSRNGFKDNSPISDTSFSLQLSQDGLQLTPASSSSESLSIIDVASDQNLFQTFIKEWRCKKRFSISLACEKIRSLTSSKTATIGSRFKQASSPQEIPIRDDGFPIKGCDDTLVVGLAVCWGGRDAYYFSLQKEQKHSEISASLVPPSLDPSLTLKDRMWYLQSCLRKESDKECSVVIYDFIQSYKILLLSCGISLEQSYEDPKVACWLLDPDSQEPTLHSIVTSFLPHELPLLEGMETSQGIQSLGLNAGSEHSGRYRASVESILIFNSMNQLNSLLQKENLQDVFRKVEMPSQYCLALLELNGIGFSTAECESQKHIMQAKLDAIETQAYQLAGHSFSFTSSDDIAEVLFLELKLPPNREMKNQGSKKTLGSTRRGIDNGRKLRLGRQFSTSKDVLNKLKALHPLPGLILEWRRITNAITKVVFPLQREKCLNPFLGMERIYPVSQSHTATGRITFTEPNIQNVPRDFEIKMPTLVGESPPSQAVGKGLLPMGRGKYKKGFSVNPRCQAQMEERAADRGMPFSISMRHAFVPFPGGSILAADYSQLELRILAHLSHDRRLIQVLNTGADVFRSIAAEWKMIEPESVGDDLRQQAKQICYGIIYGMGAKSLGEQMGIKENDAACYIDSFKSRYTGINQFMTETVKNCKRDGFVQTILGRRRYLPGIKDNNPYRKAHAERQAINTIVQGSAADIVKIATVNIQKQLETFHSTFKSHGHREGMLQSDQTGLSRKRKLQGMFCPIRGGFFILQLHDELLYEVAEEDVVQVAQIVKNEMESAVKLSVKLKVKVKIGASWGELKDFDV
SMILES	remaining activity
O=c1[nH]c2cc(Cl)ccc2c(O)c1-c1cccc(Oc2ccccc2)c1	74% and 72.3%
CC(C)(C)c1ccc(S(=O)(=O)c2cnc(SCC(=O)Nc3ccc4c(c3)OCCO4)[nH]c2=O)cc1	70.1% and 63.4%
COc1cccc2c1C(=O)c1c(O)c3c(c(O)c1C2=O)C[C@@](O)(C(C)=O)C[C@@H]3O[C@H]1C[C@H](N)[C@H](O)[C@H](C)O1	53.8% and 51.8%
Cc1ccc(-c2n[nH]c3c2C(c2cccc(O)c2)N(c2ccc(C(=O)O)cc2)C3=O)cc1 (centres unmarked)	63.5% and 64%
O=C(CSc1ncc(S(=O)(=O)c2ccc(Br)cc2)c(=O)[nH]1)NCc1ccc(Cl)cc1	54.3% and 58.3%
CC(=O)[C@]1(O)Cc2c(O)c3c(c(O)c2[C@@H](O[C@H]2C[C@H](N)[C@H](O)[C@H](C)O2)C1)C(=O)c1ccccc1C3=O	58.5% and 60.6% and 58.2% and 56.8%
O=C(O)[C@]1(Cc2cccc(Nc3nccs3)n2)CC[C@@H](Oc2cccc(Cl)c2F)CC1	55.8% and 55.5%
COc1cccc2c1C(=O)c1c(O)c3c(c(O)c1C2=O)C[C@@](O)(C(=O)CO)C[C@@H]3O[C@H]1C[C@H](N)[C@@H](O)[C@H](C)O1	45.4% and 47.7%
CC1(C)Cc2c(-c3ccccc3)c(-c3ccc(Cl)cc3)c(CC(=O)O)n2C1	70.2% and 66.3%
CCOc1ccccc1NC(=O)CSc1ncc(S(=O)(=O)c2ccc(C(C)(C)C)cc2)c(=O)[nH]1	68.5% and 70.9%
CC(=O)Oc1ccccc1C(=O)Nc1ncc([N+](=O)[O-])s1	46.3% and 47.3%

Sample 3 — read-out: enzyme activity; action: inhibitor; tested at: 0.5 µM; relative to: control
SMILES: CN(C)S(=O)(=O)c1ccc2c(c1)/C(=C/c1cc3c([nH]1)CCCC3)C(=O)N2
target	remaining activity [%]
Protein kinase C epsilon type (PRKCE, Homo sapiens, UniProt Q02156)	94.6
G protein-coupled receptor kinase 6 (GRK6, Homo sapiens, UniProt P43250)	82.6
Cytoplasmic tyrosine-protein kinase BMX (BMX, Homo sapiens, UniProt P51813)	103
Ephrin type-A receptor 7 (EPHA7, Homo sapiens, UniProt Q15375)	91.1
Aurora kinase C (AURKC, Homo sapiens, UniProt Q9UQB9)	33.8
Receptor-type tyrosine-protein kinase FLT3 (FLT3, Homo sapiens, UniProt P36888)	10.2
Myosin light chain kinase, smooth muscle (MYLK, Homo sapiens, UniProt Q15746)	97.2
Serine/threonine-protein kinase PAK 2 (PAK2, Homo sapiens, UniProt Q13177)	92.5
Beta-adrenergic receptor kinase 1 (GRK2, Homo sapiens, UniProt P25098)	95
Protein kinase C gamma type (PRKCG, Homo sapiens, UniProt P05129)	86.8
Glycogen synthase kinase-3 alpha (GSK3A, Homo sapiens, UniProt P49840)	99.4

Sample 4 — method: competition with immobilised ligand; tested at: 1 µM
SMILES: CCCOc1ccc([C@H]2[C@H](C(=O)O)[C@@H](c3ccc4c(c3)OCO4)CN2CC(=O)Nc2c(CC)cccc2CC)cc1
target	test	remaining binding [%]
Cyclin-dependent kinase 14 (CDK14, Homo sapiens, UniProt O94921)	cell-free assay	100
Protein kinase C epsilon type (PRKCE, Homo sapiens, UniProt Q02156)	cell-free assay	74
Mast/stem cell growth factor receptor Kit (KIT, Homo sapiens, UniProt P10721, D816H)	cell-free assay	72
Fibroblast growth factor receptor 4 (FGFR4, Homo sapiens, UniProt P22455)	cell-free assay	87
Ephrin type-A receptor 4 (EPHA4, Homo sapiens, UniProt P54764)	cell-free assay	97
Testis-specific serine/threonine-protein kinase 3 (TSSK3, Homo sapiens, UniProt Q96PN8)	cell-free assay	58
Serine/threonine-protein kinase B-raf (BRAF, Homo sapiens, UniProt P15056, V600E)	cell-free assay	76
Calcium/calmodulin-dependent protein kinase type IV (CAMK4, Homo sapiens, UniProt Q16566)	cell-free assay	89
Phosphatidylinositol 4-kinase beta (PI4KB, Homo sapiens, UniProt Q9UBF8)	cell-free assay	75
Phosphatidylinositol 3-kinase catalytic subunit type 3 (PIK3C3, Homo sapiens, UniProt Q8NEB9)	cell-free assay	78
Myosin-IIIa (MYO3A, Homo sapiens, UniProt Q8NEV4)	binding	100
Receptor-interacting serine/threonine-protein kinase 1 (RIPK1, Homo sapiens, UniProt Q13546)	cell-free assay	88
Bone morphogenetic protein receptor type-1A (BMPR1A, Homo sapiens, UniProt P36894)	binding	100
Mast/stem cell growth factor receptor Kit (KIT, Homo sapiens, UniProt P10721, D816V)	cell-free assay	92
Myosin light chain kinase, smooth muscle (MYLK, Homo sapiens, UniProt Q15746)	cell-free assay	85

Some of these lines once more (sample 1):
target	test	setting	normalized current
ANO1 del476-501/F628A	whole-cell voltage clamp	10 µM, I-V at -80 mV, added: 4 µM Ca2+	-0.516
ANO1 del476-501	whole-cell voltage clamp	1 µM, wild type, I-V at -60 mV, added: 4 µM Ca2+	-0.523
ANO1 del476-501/F628A	whole-cell voltage clamp	30 µM, concentration-response at -80 mV, added: 4 µM Ca2+	-0.362
ANO1 del476-501	whole-cell voltage clamp	1 µM, wild type, concentration-response at -60 mV, added: 4 µM Ca2+	-0.495
ANO1 del476-501	whole-cell voltage clamp	3 µM, wild type, concentration-response at -60 mV, added: 4 µM Ca2+	-0.433
ANO1 del476-501	whole-cell voltage clamp	3 µM, wild type, concentration-response at 40 mV, added: 4 µM Ca2+	0.298
